{"data": "Measured values of several laboratories", "ALB": "Albumin (ALB, Bos taurus, UniProt P02769)", "note": "Protocols differ between the studies behind these lines. Numbers after ± are the reported error."}
{"target": "NPY4R (Homo sapiens, UniProt P50391)", "test": "β-arrestin-1 recruitment, agonist", "system": "HEK293T", "conditions": "concentration not given, unit not given", "scale": "reference: 1 µM human pancreatic polypeptide", "measurement": "intrinsic activity", "value": 0.46, "SMILES": "CC(=O)N[C@@H](CCCNC(=N)N)C(=O)N[C@H](Cc1ccc(O)cc1)C(=O)N[C@@H](CCCNC(=N)NC(=O)NCCCCN)C(=O)N[C@@H](CC(C)C)C(=O)N[C@@H](CCCNC(=N)N)C(=O)N[C@@H](Cc1ccc(O)cc1)C(N)=O"}
{"target": "Nos3 (Mus musculus, UniProt P70313)", "test": "ACh-evoked cGMP accumulation, inhibitor", "system": "adult mouse aortic rings", "conditions": "fixed for fitting", "measurement": "Hill slope", "value": 1, "SMILES": "C=CCC(=N)NCCC[C@H](N)C(=O)O"}
{"target": "Unconventional myosin-Va (Gallus gallus, UniProt Q02440, D297C/G292C/I296C/S293C/V295G)", "test": "van't Hoff analysis", "conditions": "together with: 10 mM Mg2+", "measurement": "ΔS of pocket step", "value": "-17.4 ± 9.8 cal/(mol·K)", "SMILES": "CNc1ccccc1C(=O)O[C@H]1C[C@H](n2cnc3c(N)ncnc32)O[C@@H]1COP(=O)(O)OP(=O)(O)O"}
{"target": "ALB", "test": "fluorescence quenching", "measurement": "quenching rate constant", "value": "5.41e+13 M⁻¹ s⁻¹", "SMILES": "COC(=O)c1cnc(-c2cnccn2)cc1C(=O)OC.COC(=O)c1cnc(-c2cnccn2)cc1C(=O)OC.F[P-](F)(F)(F)(F)F.[Ag+]"}
{"target": "NUDT16 (Homo sapiens, UniProt Q96DE0)", "test": "decapping, substrate", "system": "capped RNA transcribed by SP6 polymerase", "conditions": "concentration not given, 30 min", "measurement": "cap hydrolysis", "value": "29.1%", "SMILES": "C[n+]1cn(C2OC(COP(=O)(O)OP(=O)([O-])OP(=O)(O)OCC3OC(n4cnc5c(=O)[nH]c(N)nc54)C(O)C3O)C(O)C2O)c2nc(NCc3ccccc3)[nH]c(=O)c21 (stereo not shown)"}
{"target": "ALB", "test": "UV absorption titration", "conditions": "concentration not given, pH 7.2, 25 °C", "measurement": "hyperchromism", "value": "56.9%", "SMILES": "CC(=O)[O-].O.O.O.O.[Ni+2].[O-]c1ccc(Br)cc1C=NCCN1CCOCC1"}
{"target": "Disks large homolog 4, PDZ1-2 domains (Homo sapiens, UniProt P78352)", "test": "PDZ domain binding, fluorescence emission intensity", "system": "PSD-95 PDZ1-2 tandem construct", "conditions": "4-DMAP-Dab at position -5", "scale": "reference: probe without PDZ domain", "measurement": "relative fluorescence increase", "value": 4.5, "SMILES": "CC(=O)N[C@@H](CC(=O)O)C(=O)N[C@H](C(=O)N[C@@H](CCCCN)C(=O)N[C@@H](CC(N)=O)C(=O)N[C@@H](CCN1C(=O)c2ccc(N(C)C)cc2C1=O)C(=O)N[C@@H](CCCCN)C(=O)N[C@@H](CCC(N)=O)C(=O)N[C@H](C(=O)N[C@@H](CO)C(=O)N[C@H](C(=O)O)C(C)C)[C@@H](C)O)[C@@H](C)O"}
{"target": "KAT5 (Homo sapiens, UniProt Q92993)", "test": "activator", "conditions": "20 µM", "measurement": "histone acetyltransferase activity", "value": "increased", "SMILES": "Cc1nc2c(cnn2C(C)C)cc1C(=O)NCc1ccc(C(C)O)c(C)n1 (stereo not shown)"}
{"target": "GRM1 (Homo sapiens, UniProt Q13255)", "test": "calcium signal, positive allosteric modulator", "system": "T-REx-293", "measurement": "Emax", "value": "126%", "SMILES": "Cc1cccnc1C(=O)Nc1ccc(N2C(=O)c3cccc(Cl)c3C2=O)c(Cl)c1"}
{"target": "FOLH1 (Homo sapiens, UniProt Q04609)", "system": "LNCaP", "conditions": "30 nM, 45 min, 177Lu-labelled", "measurement": "internalized amount", "value": "17.4 ± 10.8%", "SMILES": "O=C(O)CCC(NC(=O)NC(CCCCNC(=O)C(Cc1ccc2ccccc2c1)NC(=O)C1CCC(CNC(=S)Nc2ccc(CC(CN(CC(=O)O)C3CCCCC3N(CC(=O)O)CC(=O)O)N(CC(=O)O)CC(=O)O)cc2)CC1)C(=O)O)C(=O)O (stereo not shown)"}
{"target": "(CUG)4 RNA", "test": "SPR", "measurement": "residence time", "value": "704 s", "SMILES": "CCc1nc2cc3ccccc3cc2cc1C(=O)N1CCC[C@H]1C(=O)N[C@@H](C/C=C/C[C@H](NC(=O)[C@@H]1CCCN1C(=O)c1cc2cc3ccccc3cc2nc1CC)C(=O)N[C@@H](CCCCN)C(=O)NCCCN)C(=O)N[C@@H](CCCCN)C(=O)NCCCN"}
{"target": "CHRM4 (Homo sapiens, UniProt P08173)", "test": "recovery of [3H]NMS binding after washing", "system": "membranes", "conditions": "100 µM", "measurement": "dissociation half-time", "value": "4.3 ± 0.4 h", "SMILES": "CCCCCCOc1ccc(C(=O)OCC[N+]2(C)CC=CCC2)cc1 (stereo not shown)"}
{"target": "human cyclin E1 N112C:CDK2-NanoLuc", "test": "NanoBRET", "system": "HEK293T cell lysate", "conditions": "orthosteric site, together with: tracer K-10 0.2 µM", "measurement": "tracer displacement", "value": "no effect", "SMILES": "CC(OCC1CCCCC1)C(NC(=O)C1CN(C(=O)c2cncs2)CC12CN(C(=O)C1CC1(C)C)C2)C(=O)N1CCOCC1 (stereo not shown)"}
